# Published values of several laboratories.
# Lines come from different studies, so protocols differ.
# TEAD4: Transcriptional enhancer factor TEF-3 (TEAD4, Homo sapiens, UniProt Q15561)
# Chain of UniProt Q15561 (whole entry, looked up): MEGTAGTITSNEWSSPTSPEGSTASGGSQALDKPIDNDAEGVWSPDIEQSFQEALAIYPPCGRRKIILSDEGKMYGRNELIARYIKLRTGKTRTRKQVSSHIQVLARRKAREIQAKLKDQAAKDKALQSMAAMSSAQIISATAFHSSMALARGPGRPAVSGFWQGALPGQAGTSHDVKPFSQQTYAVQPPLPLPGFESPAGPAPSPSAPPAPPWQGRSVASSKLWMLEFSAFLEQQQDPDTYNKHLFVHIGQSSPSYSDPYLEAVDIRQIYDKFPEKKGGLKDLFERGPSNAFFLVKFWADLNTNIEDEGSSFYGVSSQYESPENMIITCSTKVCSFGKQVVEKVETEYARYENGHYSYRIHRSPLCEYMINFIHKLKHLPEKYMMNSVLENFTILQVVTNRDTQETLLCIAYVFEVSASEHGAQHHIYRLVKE
# 4'-phosphopantetheinyl transferase PptT: 4'-phosphopantetheinyl transferase PptT (Mycobacterium tuberculosis, UniProt O33336)
# Chain of UniProt O33336 (whole entry, looked up): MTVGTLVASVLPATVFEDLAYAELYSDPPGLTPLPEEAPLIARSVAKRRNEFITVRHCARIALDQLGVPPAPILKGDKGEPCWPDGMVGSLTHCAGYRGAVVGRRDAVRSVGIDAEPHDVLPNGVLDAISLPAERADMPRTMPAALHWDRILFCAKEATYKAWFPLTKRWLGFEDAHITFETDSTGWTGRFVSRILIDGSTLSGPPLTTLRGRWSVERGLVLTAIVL
# ENAH: Protein enabled homolog (ENAH, UniProt Q8N8S7)
# Chain of UniProt Q8N8S7 (whole entry, looked up): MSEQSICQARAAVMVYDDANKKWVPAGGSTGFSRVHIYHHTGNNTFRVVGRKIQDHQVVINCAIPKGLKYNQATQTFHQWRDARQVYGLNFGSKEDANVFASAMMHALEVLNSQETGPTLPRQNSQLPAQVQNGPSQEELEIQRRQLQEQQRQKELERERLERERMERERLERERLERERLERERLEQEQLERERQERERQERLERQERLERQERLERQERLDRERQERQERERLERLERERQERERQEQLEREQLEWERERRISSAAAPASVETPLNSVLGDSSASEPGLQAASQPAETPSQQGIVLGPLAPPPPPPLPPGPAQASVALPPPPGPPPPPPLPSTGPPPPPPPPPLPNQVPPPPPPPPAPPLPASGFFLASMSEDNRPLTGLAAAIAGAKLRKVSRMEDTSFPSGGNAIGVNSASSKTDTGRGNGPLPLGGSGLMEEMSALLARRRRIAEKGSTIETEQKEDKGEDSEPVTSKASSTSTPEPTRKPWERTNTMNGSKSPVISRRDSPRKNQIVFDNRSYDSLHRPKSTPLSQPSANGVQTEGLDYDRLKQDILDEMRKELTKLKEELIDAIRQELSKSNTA
# Chain of UniProt Q9UJS0 (whole entry, looked up): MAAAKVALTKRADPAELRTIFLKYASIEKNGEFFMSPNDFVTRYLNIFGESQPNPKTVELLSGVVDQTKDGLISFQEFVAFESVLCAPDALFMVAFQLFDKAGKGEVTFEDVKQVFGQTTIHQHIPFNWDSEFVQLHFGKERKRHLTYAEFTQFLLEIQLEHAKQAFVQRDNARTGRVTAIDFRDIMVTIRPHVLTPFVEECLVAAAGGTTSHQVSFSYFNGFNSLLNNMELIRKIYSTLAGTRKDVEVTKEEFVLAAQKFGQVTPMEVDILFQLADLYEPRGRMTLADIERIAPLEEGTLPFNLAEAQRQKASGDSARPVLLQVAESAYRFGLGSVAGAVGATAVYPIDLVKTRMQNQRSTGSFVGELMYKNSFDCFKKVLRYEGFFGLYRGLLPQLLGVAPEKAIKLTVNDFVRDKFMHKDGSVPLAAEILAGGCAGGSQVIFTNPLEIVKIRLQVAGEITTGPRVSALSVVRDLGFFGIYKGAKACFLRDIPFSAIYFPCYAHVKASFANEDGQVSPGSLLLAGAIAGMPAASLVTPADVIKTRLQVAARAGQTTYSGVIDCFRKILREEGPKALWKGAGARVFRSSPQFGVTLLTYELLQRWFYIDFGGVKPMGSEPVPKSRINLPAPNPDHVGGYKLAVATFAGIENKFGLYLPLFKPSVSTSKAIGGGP
# Chain of UniProt P27037 (whole entry, looked up): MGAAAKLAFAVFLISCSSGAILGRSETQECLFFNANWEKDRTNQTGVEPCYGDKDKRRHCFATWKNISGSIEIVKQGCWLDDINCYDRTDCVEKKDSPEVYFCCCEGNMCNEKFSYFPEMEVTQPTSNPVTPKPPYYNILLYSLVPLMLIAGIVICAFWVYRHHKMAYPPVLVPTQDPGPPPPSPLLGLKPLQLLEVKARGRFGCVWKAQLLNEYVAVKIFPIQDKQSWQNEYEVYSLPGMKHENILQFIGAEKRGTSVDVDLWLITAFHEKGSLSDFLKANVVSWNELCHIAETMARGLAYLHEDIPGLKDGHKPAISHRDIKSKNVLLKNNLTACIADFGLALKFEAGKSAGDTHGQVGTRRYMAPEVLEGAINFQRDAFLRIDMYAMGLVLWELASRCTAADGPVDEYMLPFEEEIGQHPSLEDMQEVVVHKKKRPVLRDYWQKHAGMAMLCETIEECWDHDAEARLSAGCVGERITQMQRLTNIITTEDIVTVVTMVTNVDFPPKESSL
# Chain of UniProt Q9H252 (whole entry, looked up): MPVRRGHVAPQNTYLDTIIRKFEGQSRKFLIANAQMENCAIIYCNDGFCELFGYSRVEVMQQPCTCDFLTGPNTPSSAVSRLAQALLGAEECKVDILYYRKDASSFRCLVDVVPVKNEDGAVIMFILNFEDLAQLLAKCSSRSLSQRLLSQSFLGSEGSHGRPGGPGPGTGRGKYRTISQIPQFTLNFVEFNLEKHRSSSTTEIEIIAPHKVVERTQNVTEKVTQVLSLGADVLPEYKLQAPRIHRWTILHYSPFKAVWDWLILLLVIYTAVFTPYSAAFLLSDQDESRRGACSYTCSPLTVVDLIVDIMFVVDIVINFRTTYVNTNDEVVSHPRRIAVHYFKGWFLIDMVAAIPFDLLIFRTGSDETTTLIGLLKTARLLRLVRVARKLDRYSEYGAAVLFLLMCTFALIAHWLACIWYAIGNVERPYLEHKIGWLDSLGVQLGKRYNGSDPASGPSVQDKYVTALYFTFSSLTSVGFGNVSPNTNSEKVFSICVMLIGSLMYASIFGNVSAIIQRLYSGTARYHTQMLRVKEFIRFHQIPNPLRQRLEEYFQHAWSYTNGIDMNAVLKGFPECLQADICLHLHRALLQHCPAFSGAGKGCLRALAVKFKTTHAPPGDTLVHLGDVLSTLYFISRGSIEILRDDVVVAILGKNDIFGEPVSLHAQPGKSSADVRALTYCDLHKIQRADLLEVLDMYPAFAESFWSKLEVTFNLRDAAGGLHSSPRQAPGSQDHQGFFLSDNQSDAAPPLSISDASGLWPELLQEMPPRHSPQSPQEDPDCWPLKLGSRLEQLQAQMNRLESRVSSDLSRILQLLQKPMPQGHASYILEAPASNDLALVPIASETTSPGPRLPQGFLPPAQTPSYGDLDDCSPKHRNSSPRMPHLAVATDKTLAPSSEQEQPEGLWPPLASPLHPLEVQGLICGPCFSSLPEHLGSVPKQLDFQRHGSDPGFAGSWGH
# Chain of UniProt P35590 (whole entry, looked up): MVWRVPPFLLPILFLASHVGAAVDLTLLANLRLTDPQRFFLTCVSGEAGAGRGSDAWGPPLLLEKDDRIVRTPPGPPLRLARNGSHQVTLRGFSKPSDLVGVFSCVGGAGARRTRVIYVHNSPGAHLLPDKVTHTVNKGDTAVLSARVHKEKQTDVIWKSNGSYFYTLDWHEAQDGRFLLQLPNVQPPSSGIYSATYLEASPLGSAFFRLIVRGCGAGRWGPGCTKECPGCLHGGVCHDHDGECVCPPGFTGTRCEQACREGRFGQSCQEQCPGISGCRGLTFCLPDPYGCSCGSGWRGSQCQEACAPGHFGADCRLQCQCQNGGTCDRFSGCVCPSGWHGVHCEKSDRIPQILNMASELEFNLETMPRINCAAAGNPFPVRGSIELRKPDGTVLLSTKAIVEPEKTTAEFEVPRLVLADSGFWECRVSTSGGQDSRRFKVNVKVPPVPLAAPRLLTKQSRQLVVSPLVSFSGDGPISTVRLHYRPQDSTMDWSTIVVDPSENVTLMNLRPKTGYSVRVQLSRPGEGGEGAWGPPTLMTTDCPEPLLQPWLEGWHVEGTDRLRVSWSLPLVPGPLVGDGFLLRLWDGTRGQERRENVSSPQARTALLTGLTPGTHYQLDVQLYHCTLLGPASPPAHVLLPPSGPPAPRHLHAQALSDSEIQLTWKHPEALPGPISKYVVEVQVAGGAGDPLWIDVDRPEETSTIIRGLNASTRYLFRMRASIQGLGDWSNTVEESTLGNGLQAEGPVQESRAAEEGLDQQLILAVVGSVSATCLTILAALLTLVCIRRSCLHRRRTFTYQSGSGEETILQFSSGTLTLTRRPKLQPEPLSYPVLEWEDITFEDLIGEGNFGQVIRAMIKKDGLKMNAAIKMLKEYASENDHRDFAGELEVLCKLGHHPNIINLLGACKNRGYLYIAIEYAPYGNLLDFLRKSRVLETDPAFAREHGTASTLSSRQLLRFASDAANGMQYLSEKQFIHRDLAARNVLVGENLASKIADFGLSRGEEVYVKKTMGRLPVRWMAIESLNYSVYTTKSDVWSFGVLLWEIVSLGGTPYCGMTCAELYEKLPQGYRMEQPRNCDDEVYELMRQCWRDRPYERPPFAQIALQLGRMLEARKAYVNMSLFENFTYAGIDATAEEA
# Chain of UniProt Q00987 (whole entry, looked up): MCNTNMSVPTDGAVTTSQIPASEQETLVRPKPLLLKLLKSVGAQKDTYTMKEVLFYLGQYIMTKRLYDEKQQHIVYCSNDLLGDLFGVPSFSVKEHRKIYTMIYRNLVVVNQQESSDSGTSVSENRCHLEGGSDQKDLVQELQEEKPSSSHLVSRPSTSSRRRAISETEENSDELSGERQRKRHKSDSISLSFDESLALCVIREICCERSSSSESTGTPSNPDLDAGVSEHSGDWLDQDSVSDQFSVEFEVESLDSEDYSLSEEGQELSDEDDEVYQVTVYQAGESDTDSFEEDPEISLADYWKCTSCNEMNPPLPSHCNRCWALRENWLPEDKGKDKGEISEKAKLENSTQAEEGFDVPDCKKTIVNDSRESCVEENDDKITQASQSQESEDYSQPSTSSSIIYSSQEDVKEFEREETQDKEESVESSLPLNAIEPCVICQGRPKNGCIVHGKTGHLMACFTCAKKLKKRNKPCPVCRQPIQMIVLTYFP
Structure (SMILES),target,test,setting,quantity,result
CSCC[C@H](NC(=O)[C@H](CCCNC(=N)N)NC(=O)[C@@H](N)C(C)C)C(=O)N[C@@H](CCCNC(=N)N)C(=O)N[C@@H](CC(C)C)C(=O)N[C@@H](CCCNC(=N)N)C(=O)N[C@@H](CCCCN)C(=O)N[C@@H](CC(C)C)C(=O)N[C@@H](CCCNC(=N)N)C(=O)N[C@@H](C)C(=O)N[C@@H](CO)C(=O)N[C@@H](Cc1ccccc1)C(=O)N[C@@H](Cc1ccccc1)C(=O)N[C@@H](CCCCN)C(=O)N1CCC[C@H]1C(=O)N[C@@H](CCCNC(=N)N)C(=O)N[C@@H](CCC(=O)O)C(=O)O,TEAD4,"binding, SPR",pH 7.4,Kd,4.59 µM
N#Cc1cncc(Cn2c(=S)[nH]c3cc(CO)c(Cl)cc3c2=O)c1,4'-phosphopantetheinyl transferase PptT,"enzyme activity, inhibitor, FP",,IC50,1.41 µM
CC(C)C[C@H](NC(=O)[C@H](CCC(=O)O)NC(=O)[C@H](CCC(=O)O)NC(=O)[C@H](CC(=O)O)NC(=O)[C@@H](NC(=O)[C@@H]1CCCN1C(=O)[C@@H]1CCCN1C(=O)[C@@H]1CCCN1C(=O)[C@@H]1CCCN1C(=O)[C@H](Cc1ccccc1)NC(=O)[C@@H](N)CC(=O)O)[C@@H](C)O)C(=O)O,ENAH,"binding, fluorescence",,Kd,13.5 µM
COc1ncccc1-c1cnn2ccc(N3CCN(C(=O)OC(C)C)CC3)nc12,"TIE1 (Homo sapiens, UniProt P35590)","binding, competition with immobilised ligand",1 µM,remaining binding,100%
CC[C@H](C)[C@H](NC(=O)[C@H](Cc1c[nH]cn1)NC(=O)[C@@H](N)CCC(=O)O)C(=O)N1CCC[C@H]1C(=O)N1CCC[C@H]1C(=O)N1CCC[C@H]1C(=O)N1CCC[C@H]1C(=O)N[C@@H](CCCNC(=N)N)C(=O)N1CCC[C@H]1C(=O)N1CCC[C@H]1C(=O)N[C@@H](CCCCN)C(=O)N[C@@H](CCCNC(=N)N)C(=O)O,ENAH,"binding, fluorescence",,Kd,13.8 µM
CSCC[C@H](NC(=O)[C@H](CCCNC(=N)N)NC(=O)[C@@H](N)C(C)C)C(=O)N[C@@H](CCCNC(=N)N)C(=O)N[C@@H](CC(C)C)C(=O)N[C@@H](CCCNC(=N)N)C(=O)N[C@@H](CCCCN)C(=O)N[C@@H](CC(C)C)C(=O)N1CCC[C@H]1C(=O)N[C@@H](C)C(=O)N[C@@H](CO)C(=O)N[C@@H](Cc1ccccc1)C(=O)N[C@@H](Cc1ccccc1)C(=O)N[C@@H](CCCCN)C(=O)N1CCC[C@H]1C(=O)N1CCC[C@H]1C(=O)N[C@@H](CCC(=O)O)C(=O)O,TEAD4,"binding, SPR",pH 7.4,Kd,23.9 µM
[2H]c1c([2H])c([C@]2([2H])CCCN2C(=O)C(C)(C)Oc2ccc3cn[nH]c3c2)c([2H])c([2H])c1C([2H])([2H])[2H],"Aurora kinase B (AURKB, Homo sapiens, UniProt Q96GD4)","binding, competition with immobilised ligand",1 µM,remaining binding,82%
NCCCC[C@H](N)C(=O)O,"KCNH6 (Homo sapiens, UniProt Q9H252)","binding, MST",,Kd,19500 µM
CC(C)C[C@H](NC(=O)[C@H](CCCNC(=N)N)NC(=O)[C@H](CCCNC(=N)N)NC(=O)[C@@H]1CCCN1C(=O)[C@@H](N)C(C)C)C(=O)N[C@@H](CCCNC(=N)N)C(=O)N[C@@H](CCCCN)C(=O)N[C@@H](CC(C)C)C(=O)N1CCC[C@H]1C(=O)N[C@@H](C)C(=O)N[C@@H](CO)C(=O)N[C@@H](Cc1ccccc1)C(=O)N[C@@H](Cc1ccccc1)C(=O)N[C@@H](CCCCN)C(=O)N1CCC[C@H]1C(=O)N1CCC[C@H]1C(=O)N[C@@H](CCC(=O)O)C(=O)O,TEAD4,"binding, SPR",pH 7.4,Kd,23.4 µM
NC(=S)c1ccc(Cn2c(=S)[nH]c3ccc(Cl)cc3c2=O)cn1,4'-phosphopantetheinyl transferase PptT,"enzyme activity, inhibitor, FP",,IC50,0.09 µM
Cc1nn(C)cc1-c1nc2c(N3CCN(Cc4ccc(Cl)cc4)CC3)c(Cl)cnc2[nH]1,"ACVR2A (Homo sapiens, UniProt P27037)","binding, competition with immobilised ligand",1 µM,remaining binding,100%
O=C(NS(=O)(=O)/C=C/c1cccs1)c1ccc(F)cc1Br,"FABP1 (Homo sapiens, UniProt P07148)","ligand displacement, fluorescence",,Kd,8.05 µM
CC(=O)N[C@H](C(=O)N[C@@H](CC(=O)O)C(=O)N[C@@H](CC(=O)O)C(=O)N[C@@H](Cc1ccccc1)C(=O)N[C@@H](CC(=O)O)C(=O)N[C@@H](CCCNC(=N)N)C(=O)N[C@H](C(=O)N[C@@H](Cc1c[nH]c2ccccc12)C(=O)N[C@@H](CCC(N)=O)C(=O)NCC(=O)N[C@@H](CC(C)C)C(=O)N[C@H](C(=O)NCC(=O)N[C@@H](CC(C)C)C(N)=O)C(C)C)C(C)C)C(C)C,"MDM2 (Homo sapiens, UniProt Q00987)","binding, BLI",,Kd,33 µM
CC[C@H]1CN2CC[C@]3(C(=O)Nc4ccccc43)[C@@H]2C[C@@H]1/C(=C\OC)C(=O)OC,"PRDX3 (Homo sapiens, UniProt P30048)","binding, SPR",,Kd,1.53 µM
CSCC[C@H](NC(=O)[C@@H]1CCCN1C(=O)[C@@H](N)C(C)C)C(=O)N[C@@H](CCCNC(=N)N)C(=O)N[C@@H](CC(C)C)C(=O)N[C@@H](CCCNC(=N)N)C(=O)N[C@@H](CCCCN)C(=O)N[C@@H](CC(C)C)C(=O)N1CCC[C@H]1C(=O)N[C@@H](C)C(=O)N[C@@H](CO)C(=O)N[C@@H](Cc1ccccc1)C(=O)N[C@@H](Cc1ccccc1)C(=O)N[C@@H](CCCCN)C(=O)N[C@@H](CCSC)C(=O)N1CCC[C@H]1C(=O)N[C@@H](CCC(=O)O)C(=O)O,TEAD4,"binding, SPR",pH 7.4,Kd,47.2 µM
C[C@@]1(C(=O)O)CC[C@]2(C)CC[C@]3(C)C4=CC(=O)c5c(cc(O)c(O)c5C=O)[C@]4(C)CC[C@@]3(C)[C@@H]2C1,"TP53 (Homo sapiens, UniProt P04637)","binding, SPR",,Kd,2.34 µM
"C=CC1(C)CCC(C(=C)C)C(c2c[nH]c3ccccc23)C1N=C=S (single isomer, unassigned; (-))","YAP1 (Homo sapiens, UniProt P46937)","binding, BLI",,Kd,22.8 µM
Nc1ncc(-c2nc(N3CCOCC3)nc(N3CCOCC3)n2)c(C(F)F)n1,"CSNK2A1 (Homo sapiens, UniProt P68400)","binding, competition with immobilised ligand",10 µM,remaining binding,79%
COC(CNC(=O)c1ccccc1OCC(=O)O)[CH2][Hg][OH] (stereo not drawn),"SLC25A13 (Homo sapiens, UniProt Q9UJS0)","binding, ITC",pH 6.5,Kd,0.0118 µM
CSCC[C@H](NC(=O)[C@@H]1CCCN1C(=O)[C@@H](N)C(C)C)C(=O)N[C@@H](CCCNC(=N)N)C(=O)N[C@@H](CC(C)C)C(=O)N[C@@H](CCCNC(=N)N)C(=O)N[C@@H](CCCCN)C(=O)N[C@@H](CC(C)C)C(=O)N[C@@H](CCCNC(=N)N)C(=O)N[C@@H](C)C(=O)N[C@@H](CO)C(=O)N[C@@H](Cc1ccccc1)C(=O)N[C@@H](Cc1ccccc1)C(=O)N[C@@H](CCCCN)C(=O)N1CCC[C@H]1C(=O)N1CCC[C@H]1C(=O)N[C@@H](CCC(=O)O)C(=O)O,TEAD4,"binding, SPR",pH 7.4,Kd,23.9 µM
CC[C@H](C)[C@H](NC(=O)[C@H](C)NC(=O)[C@H](CCC(=O)O)NC(=O)[C@H](CC(=O)O)NC(=O)[C@H](Cc1ccccc1)NC(=O)[C@@H](NC(=O)[C@H](C)N)C(C)C)C(=O)N[C@@H](CC(C)C)C(=O)N[C@H](C(=O)N[C@H](C(=O)N[C@@H](Cc1ccccc1)C(=O)N[C@@H](Cc1c[nH]cn1)C(=O)N1CCC[C@H]1C(=O)N[C@@H](CCCCN)C(=O)O)[C@@H](C)CC)[C@@H](C)O,"GLUL (Homo sapiens, UniProt P15104)","binding, SPR",,Kd,53.1 µM

# For quick reference, copied from above:
Structure (SMILES),target,test,setting,quantity,result
N#Cc1cncc(Cn2c(=S)[nH]c3cc(CO)c(Cl)cc3c2=O)c1,4'-phosphopantetheinyl transferase PptT,"enzyme activity, inhibitor, FP",,IC50,1.41 µM
NCCCC[C@H](N)C(=O)O,"KCNH6 (Homo sapiens, UniProt Q9H252)","binding, MST",,Kd,19500 µM
